Measured values pooled from the literature.
± marks the error that the study gave.
Voltage-dependent P/Q-type calcium channel subunit alpha-1A: Voltage-dependent P/Q-type calcium channel subunit alpha-1A (Homo sapiens, UniProt O00555)
ACTA1 pyrene-labeled: Actin, alpha skeletal muscle, pyrene-labeled (ACTA1, Oryctolagus cuniculus, UniProt P68135)
gag-pol reverse transcriptase: Gag-Pol polyprotein, reverse transcriptase (gag-pol, Human immunodeficiency virus 1, UniProt P03366)

Nc1ccncc1  inhibition (Voltage-dependent P/Q-type calcium channel subunit alpha-1A; antagonist; 30 µM): 26%
CO[C@]1([C@@H]2CSC(=O)N2C)C[C@H]2C[C@@H](CC[C@H](C)/C=C\C=C\CC/C(C)=C\C(=O)O2)O1  inhibition (ACTA1 pyrene-labeled; actin polymerization, pyrene actin; 1 µM; relative to: vehicle): 19%
CC(C)[C@@H](O)CC[C@@H](C)[C@H]1CC[C@H]2[C@@H]3CC=C4C[C@@H](O)CC[C@]4(C)[C@H]3CC[C@]12C  inhibition (Glutamate NMDA receptor; GRIN1/GRIN2B (GRIN1/GRIN2B, Homo sapiens, UniProt Q05586+Q13224); proton inhibition of current, two-electrode voltage clamp; Xenopus oocytes; concentration not given, current ratio pH 6.8 over pH 7.6, together with: positive allosteric modulator 10 µM): 25 ± 1.7%
NC/C(=C\F)COc1cccc(Cn2c(=S)[nH]c(=O)c3[nH]cnc32)c1  inhibition (rat central GABAA receptor; radioligand binding; 10 µM, together with: flunitrazepam): < 50%
O=C(Nc1cccnn1)N1CCC(=Cc2cccc(Oc3ccc(C(F)(F)F)cn3)c2)CC1  inhibition (central imidazoline I2 receptor, rat; binding; 10 µM, together with: [3H]idazoxan): 4%
COc1cc2c(c(OC)c1OC)-c1ccc(OC)c(=O)cc1[C@@H](NC(C)=O)CC2  inhibition (Voltage-dependent P/Q-type calcium channel subunit alpha-1A; ion current, antagonist; HEK293; 3 µM): -2%
COc1ccc(N2C(=O)N(c3c(C)cccc3Cl)Cc3cnc(Nc4ccc(C5CCN(C)CC5)cc4OC)nc32)nc1  inhibition (Bone morphogenetic protein receptor type-1B (BMPR1B, Homo sapiens, UniProt O00238); kinase activity, inhibitor; 0.5 µM, kinase ALK6): 16%
O=C1CSC(c2ccc(Cl)cc2)N1c1nc(-c2ccc(S(=O)(=O)N3CCCC3)cc2)cs1 (stereo not drawn)  inhibition (gag-pol reverse transcriptase; 4 µM): 78.1%
CCCCCCCCCCCCOS(=O)(=O)[O-].[Na+]  inhibition (Envelope glycoprotein gp160, gp41 hydrophobic pocket (env, Human immunodeficiency virus type 1 group M subtype B, UniProt P04578); competitive fluorescence recovery; 20 µM): 75%
O=C1CSC(c2c(Cl)cccc2Cl)N1c1cccc(S(=O)(=O)Nc2nccs2)c1 (stereo not drawn)  inhibition (gag-pol reverse transcriptase; 4 µM): 11.4%
CN1CCN(c2cc(-c3ccncc3)c(-c3ccc4ccccc4c3)nn2)CC1  inhibition (Hydroxycarboxylic acid receptor 2 (HCAR2, Homo sapiens, UniProt Q8TDS4); antagonist, FLIPR; 10 µM): -28%
CN(C(=O)n1cnc(-c2ccc[n+]([O-])c2)c1)C1CCCCC1  inhibition (central imidazoline I2 receptor, rat; binding; 50 µM, together with: [3H]idazoxan): -10%
c1ccc(C(NCCNC(c2ccccc2)c2ccccc2)c2ccccc2)cc1  inhibition (Inhibitor of nuclear factor kappa-B kinase subunit alpha (CHUK, Homo sapiens, UniProt O15111); enzyme activity; 10 µM, Eurofins selectivity panel): -14%
CN(CCN1CCC(OC(=O)Nc2ccccc2-c2ccccc2)CC1)C(=O)c1ccc(CN2CCC(C(N)=O)CC2)cc1  inhibition (rat TRH receptor; radioligand binding; 1 µM, together with: [3H]Me-TRH 2.0 nM): -20%
O=C([O-])/C=C\C(=O)[O-].[Na+].[Na+]  inhibition (Metallo-beta-lactamase type 2 (blaNDM-1, Klebsiella pneumoniae, UniProt C7C422); inhibitor; concentration not given): no inhibition
COc1cc(Nc2ncc(F)c(Nc3ccc4c(n3)NC(=O)C(C)(C)O4)n2)cc(OC)c1OC  inhibition (Cyclin-dependent kinase 15 (CDK15, Homo sapiens, UniProt Q96Q40); kinase binding, KINOMEscan; 10 µM): 2%
Cn1cc(-c2cccc(N3CCc4c(sc5c4CC(C)(C)C5)C3=O)c2CO)cc(Nc2ccncn2)c1=O  inhibition (Platelet-derived growth factor receptor alpha (PDGFRA, Homo sapiens, UniProt P16234, V561D); kinase activity; 1 µM): 6%
NC(=O)c1cccc(-c2c[nH]c3ncnc(N4CCOCC4)c23)c1  inhibition (Serine/threonine-protein kinase 3 (STK3, Homo sapiens, UniProt Q13188); kinase activity, inhibitor, PhosphoSens kinetic; concentration not given, 2 h, together with: ATP at Km): inhibited
C/C1=C/C(=O)O[C@@H]2C[C@@H](CC[C@H](C)/C=C\C=C\CC1)O[C@@](O)([C@@H]1CSC(=O)N1Cc1ccccc1)C2  inhibition (ACTA1 pyrene-labeled; actin polymerization, pyrene actin; 0.1 µM; relative to: vehicle): 24%
CC[C@H](C)[C@H](NC(=O)[C@@H](NC(=O)[C@H](N)Cc1ccccc1)C(C)C)C(=O)N[C@@H](C)C(N)=O  inhibition (Amyloid-beta precursor protein (APP, Homo sapiens, UniProt P05067); amyloid-beta aggregation, thioflavin T fluorescence; 0.5 µM, 168 h, together with: 2 µM amyloid-beta): 46.8%
CC(=O)c1c(O)c(C)c(O)c(Cc2c(O)c3c(c(C(=O)/C=C/c4ccccc4)c2O)OC(C)(C)C=C3)c1O  inhibition (Thioredoxin reductase 1, cytoplasmic (Txnrd1, Rattus norvegicus, UniProt O89049); enzyme activity, inhibitor; 20 µM, 30 min, pH 7.5): 86.4%
COC1(C2CSC(=O)N2)CC2CC(CCC(C)C=CC=CCCC(C)=CC(=O)O2)O1 (stereo not drawn)  inhibition (ACTA1 pyrene-labeled; actin polymerization, pyrene actin; 0.1 µM; relative to: vehicle): 6%
Cc1ncc(C)n2nc(/C=C/c3nc(N4CCCC4)cc(N4CCOCC4)n3)nc12  inhibition (L-type calcium channel verapamil site; radioligand binding; 10 µM): 10%
C/C1=C/C(=O)O[C@@H]2C[C@@H](CC[C@H](C)/C=C\C=C\CC1)O[C@@](OC(=O)c1ccccc1)([C@@H]1CSC(=O)N1)C2  inhibition (ACTA1 pyrene-labeled; actin polymerization, pyrene actin; 1 µM; relative to: vehicle): 67%
O=C1CSC(c2ccc(F)cc2)N1c1nc(-c2ccc(S(=O)(=O)N3CCCC3)cc2)cs1 (stereo not drawn)  inhibition (gag-pol reverse transcriptase; 4 µM): 8.36%
O=c1ccc2ccccc2o1  inhibition (D(1A) dopamine receptor (DRD1, Homo sapiens, UniProt P21728); antagonist radioligand binding; 10 µM, SafetyScreen44): -1.18%
O=C(Nc1cnccc1Cl)N1CCN(Cc2ccc3c(c2)OC(F)(F)O3)CC1  inhibition (MAP kinase-activated protein kinase 5 (MAPKAPK5, Homo sapiens, UniProt Q8IW41); kinase activity, inhibitor; 50 µM, together with: PRAK peptide substrate): -9%
C#Cc1n[nH]c2c(-c3cn([C@@H](C)c4ccccn4)c(=O)[nH]c3=O)cc(F)cc12  inhibition (Phosphatidylinositol 4,5-bisphosphate 3-kinase catalytic subunit alpha isoform, with p85 alpha (PIK3CA, Homo sapiens, UniProt P42336); kinase activity, inhibitor; 100 nM): -6.2%
N.N.O=C([O-])C1(C(=O)[O-])CCC1.[Pt+2]  inhibition (Voltage-dependent P/Q-type calcium channel subunit alpha-1A; antagonist; 30 µM): 17%
NC(=O)CC[C@H](NC(=O)[C@@H]1CCCN1C(=O)[C@H](CCC(N)=O)NC(=O)[C@@H]1CCCN1C(=O)[C@@H](N)Cc1ccc(O)cc1)C(=O)O  inhibition (Dipeptidyl peptidase 4 (DPP4, Homo sapiens, UniProt P27487); inhibitor; 100 µM, 20 min, pH 8.0, 37 °C, together with: Gly-Pro-pNA 500 µM): 89.5%
COc1cccc(C2SCC(=O)N2c2nc(-c3ccc(S(=O)(=O)N4CCCC4)cc3)cs2)c1 (stereo not drawn)  inhibition (gag-pol reverse transcriptase; 4 µM): 1.28%
CC(C)N1CCC[C@H]1CNC(=O)c1cn(C2CCCC2)c(=O)c2c1c1ccccc1n2C  inhibition (nicotinic acetylcholine receptor (human); radioligand binding; 10 µM): 8%
O=C1CSC(c2cccc(Cl)c2)N1c1nc(-c2ccc(S(=O)(=O)N3CCCC3)cc2)cs1 (stereo not drawn)  inhibition (gag-pol reverse transcriptase; 4 µM): 94.4%
CCN1C(=O)SC[C@H]1[C@@]1(O)C[C@H]2C[C@@H](CC[C@H](C)/C=C\C=C\CC/C(C)=C\C(=O)O2)O1  inhibition (ACTA1 pyrene-labeled; actin polymerization, pyrene actin; 1 µM; relative to: vehicle): 70%
O=C1CSC(c2c(F)cccc2Cl)N1c1cccc(S(=O)(=O)Nc2nccs2)c1 (stereo not drawn)  inhibition (gag-pol reverse transcriptase; 4 µM): 44.8%
C#Cc1n[nH]c2c(-c3cn([C@@H](C)c4ccccc4)c(=O)[nH]c3=O)cc(F)cc12  inhibition (Phosphatidylinositol 4,5-bisphosphate 3-kinase catalytic subunit delta isoform, with p85 alpha (PIK3CD, Homo sapiens, UniProt O00329); kinase activity, inhibitor; 100 nM): -0.9%

For quick reference, copied from above:
O=C1CSC(c2c(F)cccc2Cl)N1c1cccc(S(=O)(=O)Nc2nccs2)c1 (stereo not drawn)  inhibition (gag-pol reverse transcriptase; 4 µM): 44.8%
C#Cc1n[nH]c2c(-c3cn([C@@H](C)c4ccccc4)c(=O)[nH]c3=O)cc(F)cc12  inhibition (Phosphatidylinositol 4,5-bisphosphate 3-kinase catalytic subunit delta isoform, with p85 alpha (PIK3CD, Homo sapiens, UniProt O00329); kinase activity, inhibitor; 100 nM): -0.9%
